Literature values as cited in several papers.
Numbers after ± are the reported error.
Sequence of UniProt Q9BYT3 (whole entry, looked up): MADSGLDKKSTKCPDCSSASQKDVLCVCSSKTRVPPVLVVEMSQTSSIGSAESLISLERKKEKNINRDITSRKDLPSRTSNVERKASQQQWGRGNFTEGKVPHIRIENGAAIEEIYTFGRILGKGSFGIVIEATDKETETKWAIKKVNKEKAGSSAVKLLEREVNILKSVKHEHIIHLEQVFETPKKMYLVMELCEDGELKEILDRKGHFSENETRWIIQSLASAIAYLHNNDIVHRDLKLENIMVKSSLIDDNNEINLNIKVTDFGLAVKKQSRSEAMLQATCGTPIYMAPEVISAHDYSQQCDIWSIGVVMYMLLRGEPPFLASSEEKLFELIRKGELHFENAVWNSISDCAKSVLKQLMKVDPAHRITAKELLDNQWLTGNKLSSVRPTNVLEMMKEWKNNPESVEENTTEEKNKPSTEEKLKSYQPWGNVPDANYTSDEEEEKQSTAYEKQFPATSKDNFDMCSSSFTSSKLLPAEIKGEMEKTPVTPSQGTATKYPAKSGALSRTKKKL

Compound = COc1cc2c(Oc3ccc4[nH]c(C)cc4c3F)ccnc2cc1OCC1(N)CC1; system = human, fasting; conditions = 5 mg; endpoint = AUC(0-inf); value = 486 ± 158 ng·h/mL
Compound = Cc1nsc(-c2nnc3n2CCN(C(=O)c2ccc(F)cc2)[C@@H]3C)n1; system = human; conditions = oral, 45 mg, single dose, market formulation; endpoint = AUC(0-inf); value = 3840 ng·h/mL
Compound = C[C@H]1CO[C@@H]2Cn3cc(C(=O)NCc4ccc(F)cc4F)c(=O)c(O)c3C(=O)N12; system = human; conditions = oral tablet, two 5 mg tablets, geometric mean fasted; endpoint = AUC(0-inf); value = 44700 ng·h/mL
Compound = CNC(C)C1CCC(N)C(OC2C(N)CC(N)C(OC3OCC(C)(O)C(NC)C3O)C2O)O1 (centres unmarked); target or system = Escherichia coli; system = clinical isolate RKI 131/08; endpoint = MIC; value = > 8 µg/mL
Compound = CNCc1cc(-c2ccccc2F)n(S(=O)(=O)c2cccnc2)c1; system = human; conditions = 20 mg, single dose, fasted; endpoint = AUC(0-inf); value = 116 ng·h/mL
Compound = C[C@@H](Oc1ccc(S(C)(=O)=O)cc1C(=O)N1C[C@@H]2C[C@]2(c2cc(C(F)(F)F)on2)C1)C(F)(F)F; system = human; conditions = oral, 25 mg, tablet, fasted, single dose; endpoint = AUC(0-inf); value = 8.85 µM·h
Compound = Cc1cc(C)c(CNC(=O)c2cc(Cl)c3c(c2C)O[C@@](C)([C@H]2CC[C@H](N(C)C)CC2)O3)c(=O)[nH]1; system = human, plasma; conditions = oral, 100 mg single dose, study, geometric mean; endpoint = AUC(0-inf); value = 4370 ng·h/mL
Compound = Cc1ccccc1CN1C(=O)C2=C(CCN(Cc3ccccc3)C2)N2CCN=C12; system = human; conditions = oral, 625 mg, fasting, without rabeprazole; endpoint = AUC(0-inf); value = 21300 ng·h/mL
Compound = CC(C)c1nc(N(C)S(C)(=O)=O)nc(-c2ccc(F)cc2)c1/C=C/[C@@H](O)C[C@@H](O)CC(=O)O; assay = BCRP substrate; system = human, plasma; conditions = dose not given, added: pirtobrutinib single dose; endpoint = AUC(0-inf); value = 189 ng·h/mL
Compound = CC1(C)S[C@@H]2[C@H](NC(=O)[C@H](N)c3ccccc3)C(=O)N2[C@H]1C(=O)O; target or system = Enterobacter cloacae; system = clinical isolate RKI-No_466/13; endpoint = MIC; value = > 16 µg/mL
Compound = Nc1cc(C(F)(F)F)c(-c2nc(N3CCOCC3)nc(N3CCOCC3)n2)cn1; target or system = STK33 (Homo sapiens, UniProt Q9BYT3); assay = enzyme activity; conditions = 10 µM; scale = reference: untreated; endpoint = remaining activity; value = 66%

For quick reference, copied from above:
Compound = CC1(C)S[C@@H]2[C@H](NC(=O)[C@H](N)c3ccccc3)C(=O)N2[C@H]1C(=O)O; target or system = Enterobacter cloacae; system = clinical isolate RKI-No_466/13; endpoint = MIC; value = > 16 µg/mL
